# Results pooled from the literature.
# Cell line: OVCAR-5
SMILES,assay,conditions,scale,quantity,value
Cn1ncc(-c2ccc3c(=O)[nH]nc(CN)c3c2)c1-c1c(F)c(Cl)cc(OC2CC2)c1C#N,"cell viability, inhibitor, CellTiter-Glo","120 h, baseline-subtracted",,IC50,180 nM
CN(C)CCN1CCN(c2ccc3nc(-c4ccc5nc(-c6ccc(C(F)(F)F)cc6)[nH]c5c4)[nH]c3c2)CC1,SRB,"10 µM, 48 h",,growth percent,114%
O=C(Nc1nnc2c1c(-c1ccc(Cl)cc1)nc1sc(=Cc3ccco3)c(=O)n12)c1ccccc1 (mixture of isomers),SRB,"10 µM, NCI60 single-dose screen",reference: untreated,cell growth,66.3%
C=Cc1c(C)c2cc3nc(c(CC(=O)OCCOCCOCCOC)c4[nH]c(cc5nc(cc1[nH]2)C(C)=C5CC)c(C)c4C(=O)O)[C@@H](CCC(=O)OCCOCCOCCOC)[C@@H]3C,MTT,"0.1 µM, added: D-mannitol 30 mM",reference: compound alone,reduction of phototoxicity,~4%
CCOc1cncc(-c2ccc(NC(=O)C3(c4ccnc(NS(=O)(=O)C5CC5)n4)CCOCC3)nc2)n1,"cell proliferation, CellTiter-Glo",72 h,,IC50,35 nM
Cc1nc2c(F)cc(-c3nc(Nc4ccc(CNC(=O)CCCC(=O)NO)cc4)ncc3F)cc2n1C(C)C,"cell growth or viability, CCK-8","0.3 µM, 48 h",,inhibition,87.5%
C=Cc1c(C)c2cc3nc(c(CC(=O)OCCOCCOCCOC)c4[nH]c(cc5nc(cc1[nH]2)C(C)=C5CC)c(C)c4C(=O)OCCOCCOCCOC)[C@@H](CCC(=O)OCCOCCOCCOC)[C@@H]3C,MTT,"0.1 µM, added: sodium azide 2 mM",reference: compound alone,reduction of phototoxicity,10%
C1=[N+]2CCCC[N+]3=Cc4ccc5[n]4[Au-]23[n]2c1ccc2-c1nc2ccccc2nc1-5.F[P-](F)(F)(F)(F)F,NCI60 five-dose screen,,,TGI,4.35 -log M
Cc1nc2c(F)cc(-c3nc(Nc4ccc(C(=O)NCCCCCC(=O)NO)cc4)ncc3F)cc2n1C(C)C,"cell growth or viability, CCK-8","0.3 µM, 48 h",,inhibition,104%
Cc1ccc([N+](=O)[O-])cc1S(=O)(=O)N(C)/N=C/c1cnc2ccc(Br)cn12,"cell viability, MTS",,,IC50,40 nM

# Excerpt of the above:
SMILES,assay,conditions,scale,quantity,value
Cn1ncc(-c2ccc3c(=O)[nH]nc(CN)c3c2)c1-c1c(F)c(Cl)cc(OC2CC2)c1C#N,"cell viability, inhibitor, CellTiter-Glo","120 h, baseline-subtracted",,IC50,180 nM
